Experimental data of several laboratories.
Lines come from different studies, so protocols differ. pEC50: −log10 of the molar value. Converted amounts (≈) assume the structure as drawn.
Sequence of UniProt Q8TD19 (whole entry, looked up): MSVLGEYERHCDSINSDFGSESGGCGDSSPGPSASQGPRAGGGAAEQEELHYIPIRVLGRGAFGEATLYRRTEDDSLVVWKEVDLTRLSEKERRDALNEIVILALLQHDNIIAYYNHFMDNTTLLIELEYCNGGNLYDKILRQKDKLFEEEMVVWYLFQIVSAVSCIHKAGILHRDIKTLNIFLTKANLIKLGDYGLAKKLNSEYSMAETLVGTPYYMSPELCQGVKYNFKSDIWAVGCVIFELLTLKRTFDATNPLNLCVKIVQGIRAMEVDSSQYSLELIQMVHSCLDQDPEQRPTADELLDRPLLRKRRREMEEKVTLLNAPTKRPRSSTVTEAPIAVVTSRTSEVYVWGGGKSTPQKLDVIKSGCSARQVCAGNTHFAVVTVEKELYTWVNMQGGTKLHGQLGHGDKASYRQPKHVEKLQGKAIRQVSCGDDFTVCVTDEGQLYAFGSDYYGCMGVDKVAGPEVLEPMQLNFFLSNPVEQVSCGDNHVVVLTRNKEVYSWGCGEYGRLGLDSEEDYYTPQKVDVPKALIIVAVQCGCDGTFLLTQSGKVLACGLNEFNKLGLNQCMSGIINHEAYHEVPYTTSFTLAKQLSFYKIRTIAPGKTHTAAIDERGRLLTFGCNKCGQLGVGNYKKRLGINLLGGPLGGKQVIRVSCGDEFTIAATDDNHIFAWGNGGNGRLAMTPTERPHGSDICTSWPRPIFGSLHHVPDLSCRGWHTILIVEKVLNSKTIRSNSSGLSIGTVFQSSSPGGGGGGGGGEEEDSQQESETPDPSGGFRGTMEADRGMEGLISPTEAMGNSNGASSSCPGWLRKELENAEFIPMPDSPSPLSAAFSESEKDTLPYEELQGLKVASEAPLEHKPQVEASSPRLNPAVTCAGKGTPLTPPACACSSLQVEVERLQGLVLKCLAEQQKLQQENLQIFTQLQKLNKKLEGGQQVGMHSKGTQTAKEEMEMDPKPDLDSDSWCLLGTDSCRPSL
Sequence of UniProt Q5VT25 (whole entry, looked up): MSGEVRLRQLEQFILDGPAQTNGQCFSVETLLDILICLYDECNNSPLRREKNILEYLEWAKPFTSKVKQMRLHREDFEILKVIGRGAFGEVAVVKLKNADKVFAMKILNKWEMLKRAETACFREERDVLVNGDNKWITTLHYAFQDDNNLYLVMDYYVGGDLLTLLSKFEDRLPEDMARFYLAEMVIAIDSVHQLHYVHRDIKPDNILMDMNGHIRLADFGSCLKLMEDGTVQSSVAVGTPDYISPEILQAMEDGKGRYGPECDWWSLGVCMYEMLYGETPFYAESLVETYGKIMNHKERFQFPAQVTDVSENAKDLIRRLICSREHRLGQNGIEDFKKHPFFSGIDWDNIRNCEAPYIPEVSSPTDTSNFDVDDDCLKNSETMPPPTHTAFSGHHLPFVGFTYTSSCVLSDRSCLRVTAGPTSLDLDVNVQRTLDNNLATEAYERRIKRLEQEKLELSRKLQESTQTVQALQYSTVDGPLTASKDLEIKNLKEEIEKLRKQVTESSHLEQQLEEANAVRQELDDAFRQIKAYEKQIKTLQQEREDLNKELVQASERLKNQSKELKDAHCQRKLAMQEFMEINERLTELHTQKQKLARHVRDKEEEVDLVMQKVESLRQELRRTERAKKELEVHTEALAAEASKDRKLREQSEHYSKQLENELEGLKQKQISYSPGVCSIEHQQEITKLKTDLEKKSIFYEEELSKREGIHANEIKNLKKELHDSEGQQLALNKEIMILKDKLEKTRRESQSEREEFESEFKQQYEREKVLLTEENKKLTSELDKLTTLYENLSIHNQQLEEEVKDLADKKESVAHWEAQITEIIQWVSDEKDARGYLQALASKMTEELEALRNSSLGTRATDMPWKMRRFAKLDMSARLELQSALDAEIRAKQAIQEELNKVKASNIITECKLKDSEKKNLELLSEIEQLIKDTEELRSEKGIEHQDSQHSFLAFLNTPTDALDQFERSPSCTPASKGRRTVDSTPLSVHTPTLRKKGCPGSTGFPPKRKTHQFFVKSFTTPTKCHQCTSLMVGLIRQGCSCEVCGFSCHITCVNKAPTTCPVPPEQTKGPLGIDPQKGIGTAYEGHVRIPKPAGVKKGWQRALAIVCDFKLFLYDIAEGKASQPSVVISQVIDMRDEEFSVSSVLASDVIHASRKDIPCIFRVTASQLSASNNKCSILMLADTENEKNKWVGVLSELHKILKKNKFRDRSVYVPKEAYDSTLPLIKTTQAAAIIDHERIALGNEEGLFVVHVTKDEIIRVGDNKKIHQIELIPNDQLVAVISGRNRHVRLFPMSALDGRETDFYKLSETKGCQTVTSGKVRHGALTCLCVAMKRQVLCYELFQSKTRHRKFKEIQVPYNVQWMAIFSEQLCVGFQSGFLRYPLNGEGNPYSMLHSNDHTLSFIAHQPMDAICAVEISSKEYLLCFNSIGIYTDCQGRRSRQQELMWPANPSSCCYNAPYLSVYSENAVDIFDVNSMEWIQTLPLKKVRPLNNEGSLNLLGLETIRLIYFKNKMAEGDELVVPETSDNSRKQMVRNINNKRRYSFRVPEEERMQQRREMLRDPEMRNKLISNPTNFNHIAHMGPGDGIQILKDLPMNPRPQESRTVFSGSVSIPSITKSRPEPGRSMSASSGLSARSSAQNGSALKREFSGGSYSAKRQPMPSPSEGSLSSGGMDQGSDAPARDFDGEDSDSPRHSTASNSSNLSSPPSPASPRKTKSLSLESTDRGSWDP
Sequence of UniProt P10721 (whole entry, unmodified, looked up): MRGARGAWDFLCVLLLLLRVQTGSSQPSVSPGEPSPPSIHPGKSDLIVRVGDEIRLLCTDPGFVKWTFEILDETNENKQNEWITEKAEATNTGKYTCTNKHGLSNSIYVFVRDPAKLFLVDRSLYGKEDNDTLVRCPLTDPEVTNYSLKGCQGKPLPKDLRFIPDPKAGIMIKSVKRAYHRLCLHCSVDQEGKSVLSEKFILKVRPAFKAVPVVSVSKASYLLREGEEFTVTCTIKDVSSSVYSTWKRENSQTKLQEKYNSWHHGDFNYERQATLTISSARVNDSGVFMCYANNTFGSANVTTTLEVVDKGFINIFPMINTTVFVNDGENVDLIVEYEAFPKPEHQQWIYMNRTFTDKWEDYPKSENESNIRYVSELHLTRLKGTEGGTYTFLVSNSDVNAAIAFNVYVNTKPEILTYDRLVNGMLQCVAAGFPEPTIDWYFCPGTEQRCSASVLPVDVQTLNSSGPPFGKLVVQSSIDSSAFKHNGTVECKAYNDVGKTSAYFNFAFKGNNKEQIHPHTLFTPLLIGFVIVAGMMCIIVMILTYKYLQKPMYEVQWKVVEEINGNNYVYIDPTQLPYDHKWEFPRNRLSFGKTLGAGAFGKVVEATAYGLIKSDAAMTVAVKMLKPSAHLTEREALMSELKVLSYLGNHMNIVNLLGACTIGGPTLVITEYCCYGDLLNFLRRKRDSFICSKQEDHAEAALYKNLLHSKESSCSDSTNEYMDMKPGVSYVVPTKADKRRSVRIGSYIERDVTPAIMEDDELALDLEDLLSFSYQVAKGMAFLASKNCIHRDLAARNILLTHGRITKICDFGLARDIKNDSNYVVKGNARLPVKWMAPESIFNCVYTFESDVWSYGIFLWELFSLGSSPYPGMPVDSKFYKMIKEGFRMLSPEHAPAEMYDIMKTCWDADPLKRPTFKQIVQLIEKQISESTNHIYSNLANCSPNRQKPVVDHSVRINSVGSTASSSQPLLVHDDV
Sequence of UniProt P31749 (whole entry, looked up): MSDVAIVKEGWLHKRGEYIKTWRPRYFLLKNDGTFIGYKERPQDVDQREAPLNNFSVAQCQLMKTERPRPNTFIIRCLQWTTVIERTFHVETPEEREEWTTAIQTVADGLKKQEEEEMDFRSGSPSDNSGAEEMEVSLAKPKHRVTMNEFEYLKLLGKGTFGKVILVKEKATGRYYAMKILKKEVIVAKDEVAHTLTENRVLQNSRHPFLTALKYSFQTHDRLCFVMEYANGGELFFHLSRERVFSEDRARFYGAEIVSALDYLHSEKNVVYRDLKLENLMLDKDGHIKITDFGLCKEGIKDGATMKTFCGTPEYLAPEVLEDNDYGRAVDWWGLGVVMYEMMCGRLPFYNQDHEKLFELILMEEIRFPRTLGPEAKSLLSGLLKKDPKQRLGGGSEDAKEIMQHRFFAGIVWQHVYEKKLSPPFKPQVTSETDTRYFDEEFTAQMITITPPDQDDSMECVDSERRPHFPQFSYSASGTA
Sequence of UniProt Q15759 (whole entry, looked up): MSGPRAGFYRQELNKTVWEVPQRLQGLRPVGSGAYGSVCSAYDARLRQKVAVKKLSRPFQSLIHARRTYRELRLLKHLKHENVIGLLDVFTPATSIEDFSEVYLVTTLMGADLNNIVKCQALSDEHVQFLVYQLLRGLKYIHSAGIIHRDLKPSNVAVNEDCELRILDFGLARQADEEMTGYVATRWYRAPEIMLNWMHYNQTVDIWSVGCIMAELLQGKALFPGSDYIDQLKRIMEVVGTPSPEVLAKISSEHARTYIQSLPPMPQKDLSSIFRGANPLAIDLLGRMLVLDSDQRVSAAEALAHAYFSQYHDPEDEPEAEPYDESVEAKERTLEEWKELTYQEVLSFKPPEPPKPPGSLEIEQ

`COc1cc(C#CC(=O)c2ccccc2)ccc1O` — result for “activity vs control”: 92% (Pseudomonas aeruginosa; microbial growth, absorbance; 10 µM, 24 h).
`Cc1ccc(C(=O)O)cc1` — result for “activity vs control”: 80.5% (Cryptosporidium parvum; parasite growth, imaging; HCT-8; 1 mM, 24 h, intracellular).
`O=C(Cc1ccc(-c2ccc(OCCN3CCOCC3)cc2)cn1)NCc1ccccc1` has an MIC of over 30 µM (Staphylococcus aureus; microbial growth; NCTC8325).
`O=C(C#Cc1ccc(F)c(F)c1)c1cccc(Cl)c1` — result for “activity vs control”: 97% (Pseudomonas aeruginosa; microbial growth, absorbance; 10 µM, 24 h).
The MIC of `O=C(Nc1ccc2c(c1)OCCO2)Nc1ccc(Cl)c(C(F)(F)F)c1` is reported as over 100 µM (Staphylococcus aureus; microbial growth; NCTC8325; 24 h).
`O=S(=O)(Nc1nccs1)c1ccc(N=NN(O)c2ccccc2)cc1` gave an inhibition of 74.8% (ABTS scavenging; 180 µg/mL).
`CN(c1ncccc1CNc1nc(Nc2ccc3c(c2)CC(=O)N3)ncc1C(F)(F)F)S(C)(=O)=O` gave an MIC of over 30 µM (Staphylococcus aureus; microbial growth; NCTC8325).
Under “activity vs control”, `CCCCC[C@H](O)CC(=O)CCc1ccc(O)c(OC)c1` is recorded as 95% (Pseudomonas aeruginosa; microbial growth, absorbance; 100 µM, 24 h).
For `CNc1ncc2c(/C=C/C(=O)N3CCC(OC)CC3)nn(Cc3cccc(C(F)(F)F)c3)c2n1`, the remaining activity was 87% (NEK9 (Homo sapiens, UniProt Q8TD19); enzyme activity, inhibitor, radiometric; 1 µM).
For `COc1ccc(Oc2ccc(NC(=O)CNc3ccccc3N3CCCC3=O)cc2)cc1`, the pEC50 was 5.38 (Plasmodium falciparum; parasite growth; 3D7; 72 h, blood stage).
`CCCN(O)N=Nc1ccc(S(=O)(=O)Nc2nccs2)cc1` gave an inhibition of 61.3% (ABTS scavenging; 240 µg/mL).
`CCCCC(=O)Nc1ccc(-c2ccc3ncn(CCC)c(=O)c3c2)cn1` has a remaining binding of 100% (KIT (Homo sapiens, UniProt P10721, D816V); binding, competition with immobilised ligand; 0.5 µM).
`COc1cc(C#CC(=O)c2ccc(C)cc2)ccc1O`: “activity vs control” 113% (Pseudomonas aeruginosa; microbial growth, absorbance; 100 µM, 24 h).
`CC(C)(O)CC(=O)NCCn1ccc2ncnc(Nc3ccc(Oc4cccc(C(F)(F)F)c4)c(Cl)c3)c21` gave an MIC of 30 µM (≈ 16.4 µg/mL) (Staphylococcus aureus; microbial growth; NCTC8325).
`CN(Cc1ccc(C(C)(C)C)cc1)Cc1cccc2ccccc12` gave an inhibition zone of 27 mm (Trichophyton rubrum; microbial growth, disc diffusion; ATCC28188; 0.001 µg/mL, 6 days).
`Nc1ccn([C@@H]2O[C@H](COP(=O)(O)O)[C@@H](O)[C@H]2O)c(=O)n1`: “activity vs control” 101% (Cryptosporidium parvum; parasite growth, imaging; HCT-8; 1 mM, 24 h, intracellular).
`CN1CCN(c2ccc3nc(-c4c(N)c5c(F)cccc5[nH]c4=O)[nH]c3c2)CC1` gave an MIC of over 30 µM (Staphylococcus aureus; microbial growth; NCTC8325).
`OC(c1cc(C(F)(F)F)nc2c(C(F)(F)F)cccc12)C1CCCCN1` (stereo not shown) gave a pEC50 of 7.62 (Plasmodium falciparum; parasite growth; 3D7; 72 h, blood stage).
For `OC(C#Cc1ccc(F)c(F)c1)c1ccccc1Cl` (stereo not shown), “activity vs control” read 95% (Pseudomonas aeruginosa; microbial growth, absorbance; 10 µM, 24 h).
With `Cc1ccc2[nH]ccc2c1` the EC90 was 1320 µM (Cryptosporidium parvum; parasite growth; HCT-8; 24 h, intracellular).
`COc1cccc(C(O)C#Cc2ccc(O)c(OC)c2)c1` (stereo not shown) — result for “activity vs control”: 83% (Pseudomonas aeruginosa; microbial growth, absorbance; 100 µM, 24 h).
With `CC(C)(C)c1cnc(CSc2cnc(NC(=O)C3CCNCC3)s2)o1` the MIC was over 30 µM (Staphylococcus aureus; microbial growth; NCTC8325).
`COc1ccc(C(=O)C#Cc2ccc(O)c(OC)c2)cc1` — result for “activity vs control”: 86% (Pseudomonas aeruginosa; microbial growth, absorbance; 100 µM, 24 h).
The remaining binding of `C=CC(=O)N1CCC(COCC(=O)N2CCN(c3nc(-c4cnc(N)nc4C(F)F)nc(N4CCOC[C@@H]4C)n3)CC2)CC1` is reported as 100% (MAPK11 (Homo sapiens, UniProt Q15759); binding, competition with immobilised ligand; 1 µM).
`CNC(=O)c1cc(Oc2ccc(NC(=O)c3ccc(Cl)c(C(F)(F)F)c3)cc2)ccn1` has an MIC of over 100 µM (Staphylococcus aureus; microbial growth; NCTC8325).
`CC(C)N(c1ccc(C#N)cc1)c1ccc(NC(=O)CN(C)c2ccccc2N2CCCC2=O)cn1` gave a pEC50 of 8.15 (Plasmodium falciparum; parasite growth; 3D7; 72 h, blood stage).
`CC(C)C(=O)O`: “activity vs control” 107% (Cryptosporidium parvum; parasite growth, imaging; HCT-8; 1 mM, 24 h, intracellular).
The remaining activity of `COc1cc(-c2cncc3c2CN(C)Cc2cc(N4CCNCC4)ccc2-3)cc(OC)c1OC` is reported as 108% (CDC42BPA (Homo sapiens, UniProt Q5VT25); enzyme activity, inhibitor; 1 µM).
The pEC50 of `O=C(CNc1ccccc1N1CCCC1=O)Nc1ccc(Oc2ccc(C(F)(F)F)cc2)cc1` is reported as under 5.00 (Plasmodium falciparum; parasite growth; 3D7; 72 h, blood stage).
`NCCCn1cc(C2=C(c3c[nH]c4ccccc34)C(=O)NC2=O)c2ccccc21` gave an MIC of over 30 µM (Staphylococcus aureus; microbial growth; NCTC8325).
`COc1cc(C#C[C@@H](O)CC(C)C)ccc1O` — result for “activity vs control”: 97% (Pseudomonas aeruginosa; microbial growth, absorbance; 10 µM, 24 h).
For `Nc1ccn([C@@H]2O[C@H](CO)[C@@H](O)[C@H]2O)c(=O)n1`, “activity vs control” read 94% (Cryptosporidium parvum; parasite growth, imaging; HCT-8; 1 mM, 24 h, intracellular).
With `Cc1cc([C@@H](C)Nc2ccccc2C(=O)O)c2nc(N3CCC(F)(F)CC3)c(C#N)c(=O)n2c1` the remaining binding was 100% (AKT1 (Homo sapiens, UniProt P31749); binding, competition with immobilised ligand; 10 µM).
Under “activity vs control”, `Nc1ccn([C@H]2C[C@H](O)[C@@H](COP(=O)(O)O)O2)c(=O)n1` is recorded as 103% (Cryptosporidium parvum; parasite growth, imaging; HCT-8; 1 mM, 24 h, intracellular).
`CN(Cc1ccc(C2(C(F)(F)F)CC2)cc1)Cc1cccc2ccccc12` gave an inhibition zone of at least 55 mm (Trichophyton rubrum; microbial growth, disc diffusion; ATCC28188; 0.128 µg/mL, 6 days).
For `Cc1ccc(Oc2ccc(NC(=O)CNc3ccccc3N3CCCC3=O)cc2)cc1`, the pEC50 was 6.09 (Plasmodium falciparum; parasite growth; 3D7; 72 h, blood stage).
`O=C(O)/C=C/c1c[nH]cn1`: “activity vs control” 97.3% (Cryptosporidium parvum; parasite growth, imaging; HCT-8; 1 mM, 24 h, intracellular).

Excerpt of the above:
Under “activity vs control”, `Nc1ccn([C@H]2C[C@H](O)[C@@H](COP(=O)(O)O)O2)c(=O)n1` is recorded as 103% (Cryptosporidium parvum; parasite growth, imaging; HCT-8; 1 mM, 24 h, intracellular).
`CN(Cc1ccc(C2(C(F)(F)F)CC2)cc1)Cc1cccc2ccccc12` gave an inhibition zone of at least 55 mm (Trichophyton rubrum; microbial growth, disc diffusion; ATCC28188; 0.128 µg/mL, 6 days).
For `Cc1ccc(Oc2ccc(NC(=O)CNc3ccccc3N3CCCC3=O)cc2)cc1`, the pEC50 was 6.09 (Plasmodium falciparum; parasite growth; 3D7; 72 h, blood stage).
`O=C(O)/C=C/c1c[nH]cn1`: “activity vs control” 97.3% (Cryptosporidium parvum; parasite growth, imaging; HCT-8; 1 mM, 24 h, intracellular).
